Experimental data gathered from unrelated publications.
A part holds a random share of what one study measured.

Series 1
Target: Histone acetyltransferase KAT6A, winged helix 2, GST fusion (KAT6A, Homo sapiens, UniProt Q92794, residues 85-181)
Technique: protein binding microarray
Form: double-stranded DNA, one strand shown
Sample: in vitro
Tested at: not given
Notes: 8-mer, flanks averaged, mean of 2 arrays, mostly near background
Baseline: not given
Reading: higher = stronger binding
Residues (chain): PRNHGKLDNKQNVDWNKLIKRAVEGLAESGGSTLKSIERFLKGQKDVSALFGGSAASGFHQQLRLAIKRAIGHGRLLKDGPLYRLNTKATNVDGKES
For `TAAAGGCA`, the E-score was 0.141.
The E-score of `AACGGAAG` is reported as -0.0746.
The E-score of `TGCTTCAA` is reported as 0.114.
`CGAGCCAA` has an E-score of 0.00662.
The E-score of `ACACAGGA` is reported as -0.149.
For `GATACCCC`, the E-score was -0.0066.
With `AGGACGGA` the E-score was -0.104.
The E-score of `AACCAGGT` is reported as -0.0382.
`ACTCTAAT` gave an E-score of -0.069.
The E-score of `CCAAGAAA` is reported as 0.173.
The E-score of `ACAACAAC` is reported as 0.147.
With `CTAGCCGA` the E-score was 0.0934.
`CACCAGAC` has an E-score of -0.0212.
For `CGGAATAG`, the E-score was 0.075.
`ATAAGGCC` gave an E-score of 0.0221.
For `ACCGGGCA`, the E-score was 0.0688.
With `ATATGATG` the E-score was 0.108.
`CGAGAACC` gave an E-score of -0.0601.
The E-score of `AGGCTTGA` is reported as 0.0304.
With `CGGTTTTC` the E-score was 0.0939.
For `ACTCAGCG`, the E-score was -0.0567.
`TAGTTTGA` gave an E-score of 0.0788.
The E-score of `AGGTCAGG` is reported as 0.1.
With `TAGAGACA` the E-score was 0.0198.
The E-score of `AAACAGCC` is reported as -0.15.

Series 2
Target: Interferon regulatory factor 7, full length, phosphomimetic (IRF7, Homo sapiens, UniProt Q92985, residues 1-503, S471D/S472D/S475D/S476D/S477D/S483D/S484D/S487D)
Technique: protein-binding microarray
Form: double-stranded DNA, one strand shown
Sample: in vitro
Tested at: 2200 nM top
Notes: 60-bp whole probe
With: salmon DNA 0.4 mg/ml
Baseline: random background probes
Reading: higher = stronger binding
Shared flanks, not repeated: GCCTAGCAC … GTCTTGATTCGCTTGACGCTGCTG
Construct (chain): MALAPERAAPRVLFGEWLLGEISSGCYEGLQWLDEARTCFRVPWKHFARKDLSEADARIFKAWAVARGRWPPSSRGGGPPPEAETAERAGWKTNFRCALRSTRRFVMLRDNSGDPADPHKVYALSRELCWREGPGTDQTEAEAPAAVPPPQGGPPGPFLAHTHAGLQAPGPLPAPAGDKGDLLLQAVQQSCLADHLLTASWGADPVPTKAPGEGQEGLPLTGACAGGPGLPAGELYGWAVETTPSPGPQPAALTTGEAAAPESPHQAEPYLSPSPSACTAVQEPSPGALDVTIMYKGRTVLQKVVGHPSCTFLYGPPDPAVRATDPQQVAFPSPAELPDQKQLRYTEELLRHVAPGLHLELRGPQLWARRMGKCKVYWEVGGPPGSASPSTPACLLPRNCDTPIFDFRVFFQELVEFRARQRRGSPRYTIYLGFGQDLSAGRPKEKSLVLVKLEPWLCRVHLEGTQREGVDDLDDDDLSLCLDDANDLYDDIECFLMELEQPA
`TTAGGTCTCGCACTGGGTTAGTGCTAG` — result for “fitted relative affinity”: 0.272 z-score.
For `GACGGTATCCTTCTCCTAACGTGCTAG`, “fitted relative affinity” read 1.23 z-score.
`GACGGTACCCTTTTCCTGACGTGCTAG`: “fitted relative affinity” 1.45 z-score.
Under “fitted relative affinity”, `TTAGGTCTCCGTATCCTTTAGTGCTAG` is recorded as 0.909 z-score.
For `GACGATTTGAGTTTCGAGACGTGCTAG`, “fitted relative affinity” read 2.31 z-score.
For `TCATGTTGCAGACTCGAACTGTGCTAG`, “fitted relative affinity” read 1.02 z-score.
`GACCGTCTCCTTATCCTGACGTGCTAG` — result for “fitted relative affinity”: 1.68 z-score.
`TTAGGACAGGGTTTCGGTTAGTGCTAG` — result for “fitted relative affinity”: 3.2 z-score.
`GACGGTACCGGTCTCGGGACGTGCTAG` — result for “fitted relative affinity”: -0.453 z-score.
`TTAGGTCTCGGTATCGGTGAGTGCTAG` — result for “fitted relative affinity”: 0.37 z-score.
Under “fitted relative affinity”, `TCAGTTGTGATTCTTTCACTGTGCTAG` is recorded as 1.52 z-score.
For `TTAGGTTTCCTTTCCCTTTGGTGCTAG`, “fitted relative affinity” read 5.01 z-score.
`GACAATTCCAGTTTCGAGACGTGCTAG` — result for “fitted relative affinity”: 4.16 z-score.
For `TCATTTTTGCAAGCTAAAACTGTGCTA`, “fitted relative affinity” read 0.685 z-score.
For `TTAGATTTCAGCCTCGATTAGTGCTAG`, “fitted relative affinity” read 0.255 z-score.
`TCATGTCTCAGAGTCCTACTGTGCTAG`: “fitted relative affinity” 1.09 z-score.
`TTTAAAGAACCCACTATCTTGTGCTAG`: “fitted relative affinity” -0.136 z-score.
Under “fitted relative affinity”, `CTCTCTTTCCAACTCTGTTTGTGCTAG` is recorded as 3.18 z-score.
Under “fitted relative affinity”, `GACGAACAGGGGTTTCGAGACGTGCTA` is recorded as 1.41 z-score.

Series 3
Target: Fragile X messenger ribonucleoprotein 1, C-terminal low-complexity region (Fmr1, Mus musculus, UniProt P35922)
Technique: RNA Bind-n-Seq
Form: RNA
Sample: in vitro
Tested at: 200 nM
Notes: whole 134-nt RNA, ends assumed
With: 150 mM LiCl
Baseline: input library
Reading: higher = stronger binding
All molecules: 7-deaza-guanosine replaces G
Shared flanks, not repeated: GGGAGUUCUACAGUCCGACGAUC … UGGAAUUCUCGGGUGUCAAGG
`CAAGUCCUGUGCUACACAUCGUAUGUACCGAAUCGGGCCCGGGCCCGGCCCGGGGAAAGUAUUAUGUUACGCCGUUCGGAUCUGCACUUC` has a log2 enrichment of -1.93.
For `UCCUGUGCUACACAUCGUAUGUACCGAAUCAAACCCCCCCAAAUUUUUUUAAACCCAAAAAAGUAUUAUGUUACGCCGUUCGGAUCUGCA`, the log2 enrichment was 1.82.
`CCUGUGCUACACAUCGUAUGUACCGAAUCGGGAAAAAAGGAAAAAAGGGGAAAAAAGGGGAAAGUAUUAUGUUACGCCGUUCGGAUCUGC` has a log2 enrichment of -0.0255.
With `UGGGAGGUGGAUUUUGUUUAUUUUUUUAGCUCAUUUCCAGGGGUGGGAAUUUCUUUUUAAUAUGUGUCAUGAAUAAAGUUGUUUUUGAAA` the log2 enrichment was -0.187.
`GUCCUGUGCUACACAUCGUAUGUACCGAAUCGGGAAAAAGGAAAAAGGGGAAAAAGGGGAAAGUAUUAUGUUACGCCGUUCGGAUCUGCA` has a log2 enrichment of 0.668.
The log2 enrichment of `AGUCCUGUGCUACACAUCGUAUGUACCGAAUCGGGUUUUUGGUUUUUGGUUUUUGGGAAAGUAUUAUGUUACGCCGUUCGGAUCUGCACU` is reported as -2.06.
The log2 enrichment of `GUCCUGUGCUACACAUCGUAUGUACCGAAUCGGGGUUUGGGGUUUUUUUGGGGUGGGGAAAGUAUUAUGUUACGCCGUUCGGAUCUGCAC` is reported as -0.642.
For `CUGUGCUACACAUCGUAUGUACCGAAUCGGGGUUUGGGGAAAAAAAGGGGUUUUUUUGGGGAAAGUAUUAUGUUACGCCGUUCGGAUCUG`, the log2 enrichment was -0.85.

Series 4
Target: Sal-like protein 4, full length isoform B (SALL4, Homo sapiens, UniProt Q9UJQ4-2, residues 1-616)
Technique: universal PBM
Form: double-stranded DNA, one strand shown
Sample: in vitro
Tested at: not given
Notes: 8-mer, flanks averaged, mean of replicates
Reading: higher = stronger binding
Construct (chain): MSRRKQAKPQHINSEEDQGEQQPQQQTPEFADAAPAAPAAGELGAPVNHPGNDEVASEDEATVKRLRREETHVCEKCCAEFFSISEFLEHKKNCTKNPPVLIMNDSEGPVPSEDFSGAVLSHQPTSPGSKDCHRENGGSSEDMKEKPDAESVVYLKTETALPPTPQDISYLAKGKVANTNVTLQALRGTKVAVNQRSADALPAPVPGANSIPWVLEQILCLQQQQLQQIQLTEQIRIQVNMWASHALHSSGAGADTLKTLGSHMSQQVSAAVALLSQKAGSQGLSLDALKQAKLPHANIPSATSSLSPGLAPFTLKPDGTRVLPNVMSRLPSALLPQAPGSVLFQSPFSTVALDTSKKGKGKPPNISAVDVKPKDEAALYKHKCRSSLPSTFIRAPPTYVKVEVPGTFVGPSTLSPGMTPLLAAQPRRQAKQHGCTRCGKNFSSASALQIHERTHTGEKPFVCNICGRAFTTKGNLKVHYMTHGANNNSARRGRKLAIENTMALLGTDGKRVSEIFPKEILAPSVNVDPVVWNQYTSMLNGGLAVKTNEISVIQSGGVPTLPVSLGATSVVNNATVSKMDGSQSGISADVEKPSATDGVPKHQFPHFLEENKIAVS
With `GGAGGCAC` the E-score was -0.259.
The E-score of `AAATATCC` is reported as 0.275.
For `AACAGTAA`, the E-score was 0.0157.
`CCGCGTGC` has an E-score of -0.267.
The E-score of `ACCCGTCG` is reported as -0.253.
`AGCCAATG` has an E-score of 0.017.
`CAAACTGC` has an E-score of -0.129.
`ACTCTAAG` gave an E-score of 0.0068.
`TGATTGAA` gave an E-score of 0.175.
With `GCTACACC` the E-score was -0.122.
`ATGAAGAC` has an E-score of 0.116.
The E-score of `GCCTTCGC` is reported as -0.0485.
For `CGCCTACA`, the E-score was -0.0223.
`CCACAAAA` gave an E-score of 0.0648.
`ATCACTCC` gave an E-score of -0.106.
`GCTAACAA` gave an E-score of 0.102.
For `GAACCAAC`, the E-score was -0.0459.
`GCTCTAAC` has an E-score of -0.182.
`CATCTAAA` gave an E-score of 0.0974.
For `AATGTAAG`, the E-score was 0.264.
With `GGGGGTAA` the E-score was -0.136.
`AAGAATGA` has an E-score of 0.236.
With `AACATTCT` the E-score was 0.212.
The E-score of `AGTCTGGA` is reported as 0.00525.
For `AGTAGGCG`, the E-score was -0.157.

Excerpt of the above (series 1):
With `CTAGCCGA` the E-score was 0.0934.
`CACCAGAC` has an E-score of -0.0212.
For `CGGAATAG`, the E-score was 0.075.
`ATAAGGCC` gave an E-score of 0.0221.
For `ACCGGGCA`, the E-score was 0.0688.
With `ATATGATG` the E-score was 0.108.
`CGAGAACC` gave an E-score of -0.0601.
